# Published values pooled from the literature.
# Compare with care: the assays were run in different laboratories. ± gives the spread as reported.
SMILES,assay,system,setting,scale,endpoint,value
CC(C)C(=O)O[C@H]1[C@H](C)OC(=O)[C@@H]1Cc1ccccc1,soil adsorption,tested soils,geometric mean,,Freundlich coefficient KF,3.2 mL/g
CC(C)(C(=O)N1CCOc2c(C#N)cncc2C1)C(F)F,measured: abdominal discomfort,human,"oral, 10 mg once daily, 14 days, multiple ascending dose",,subjects with adverse event,0%
C[C@H](CCC(=O)NCCS(=O)(=O)O)[C@H]1CC[C@H]2[C@@H]3CC[C@@H]4C[C@H](O)CC[C@]4(C)[C@H]3C[C@H](O)[C@]12C,,"human, plasma",endogenous baseline diurnal,,daily mean concentration,41.3 ± 8.5 nM
O=C(CCCCCCC(=O)Nc1ccc(CC[18F])cc1)NO,,"athymic nu/nu male mice, LNCaP xenograft, spleen","intravenous, 2 h",,tissue uptake,0.9 ± 0.2 %ID/g
Cn1cc([C@H]2C[C@H]3CSC(N)=N[C@@]3(c3ccc(F)cc3F)CO2)cn1,,"male 129/SVE mouse, brain","subcutaneous, 10 mg/kg, 18 h",,brain concentration,0.037 µM
CC(C)NCC(O)COc1cccc2ccccc12 (stereo not drawn),,"male Hartley guinea pig, anaesthetized","intravenous infusion, 0.3 mg/kg, 10 min infusion, post-infusion",,QTc interval,346 ± 0.7 ms
CSc1ccc(CNS(=O)(=O)c2c(C)oc(C)c2C(=O)O)cc1C,"colloidal aggregate formation, dynamic light scattering",50 mM potassium phosphate buffer,"200 µM, pH 7.0, 1% DMSO",higher = more aggregation,DLS scattered light intensity,530000 counts/s
C=CC(=O)NC1CCN(c2ncc3ncnc(Nc4ccc(Oc5ccc6c(c5)ncn6C)c(C)c4)c3n2)CC1,,"healthy male volunteers, plasma","intravenous, 100 µg",,volume of distribution,1.93 L/kg
Cc1c(-c2ccc(N3CCc4cccc(C(=O)Nc5nc6ccccc6s5)c4C3)nc2C(=O)O)cnn1CC12CC3(C)CC(C)(C1)CC(OCCNCC[C@H](O)CO)(C3)C2,,"beagle dog, anaesthetised","intravenous infusion, 0.3 mg/kg/min, 105 min",baseline: vehicle,PR interval change,0 ms
Cn1cc(Nc2nccc(-c3ccc4c(c3)CN(C3COC3)CC[C@H]4NC(=O)c3cn(C(C)(C)C)nn3)n2)cn1,,"human, whole blood","50 mg twice daily, day 14",baseline: pre-dose baseline,plasma cell count change,0.16%
COc1cc(C(=O)NC2CCN(C)CC2)c(F)cc1Nc1ncc(C(F)(F)F)c(Oc2cccc3c2C(=O)N(C)C3)n1,,"human patients, plasma","oral, 10 mg once daily repeated, geometric mean",,dose-normalised AUC(tau) at steady state,81.6 nmol·h/L per mg
Cl.[2H]C([2H])([2H])CC(=O)c1cnc(NC(=O)C2CC2)cc1Nc1cccc(-c2ncn(C([2H])([2H])[2H])n2)c1OC,geometric mean,human,"oral, 100 mg single dose, fasted, liquid",,elimination rate constant,2.36e-05 s⁻¹
CNC(=O)c1ccc(-c2cnc3ncc(Cc4ccc5ncccc5c4)n3n2)cc1F,,human severe hepatic impairment,"oral, 200 mg single dose, adjusted geometric mean",,unbound AUC(0-inf),324 ng·h/mL
CCOc1c([C@H](C)n2nc(C)c3c(N)ncnc32)cc(Cl)c(F)c1[C@@H]1CNC(=O)C1,,"patients with DLBCL, plasma","oral, 20 mg, day 15, monotherapy",,half-life,9.5 ± 1 h
O=C(COc1ccc(Cl)cc1)NC12CC(c3nnc([C@H]4C[C@@H](OC(F)(F)F)C4)o3)(C1)C2,measured: Myalgia,"healthy humans, both sexes","oral, 15 mg, single ascending dose",baseline: subjects,treatment-emergent adverse events,16.7%
C/C(O)=C(\C#N)C(=O)Nc1ccc(C(F)(F)F)cc1,,"CD-1 mice female, whole blood","oral, 10 mg/kg leflunomide daily, 8 h, after dose 10",,blood concentration,129 ± 36.6 µM
CO/N=C(\C(=O)N[C@@H]1C(=O)N2C(C(=O)[O-])=C(C[N+]3(C)CCCC3)CS[C@H]12)c1csc(N)n1,,human plasma,"concentration not given, 8 months, -80 °C",,deviation from nominal concentration,-11.2%
C=CCN1CC(=O)N2[C@@H](Cc3ccc(O)cc3F)C(=O)N(Cc3cccc(N4CC(N5CCN(CC)CC5)C4)n3)C[C@@H]2N1C(=O)NCc1ccccc1,,advanced solid tumour patients,"oral, 120 mg twice daily, grade ≥3, dose-escalation",,treatment-related vomiting,0%
CCNCCCNC/C=C\CNCCCNCC,LC-MS/MS,"cancer patients, plasma","intravenous infusion, 50 mg, 60 min infusion, median, cycle 1",,volume of distribution,29.7 L/kg
NC(=O)N1c2ccccc2C=Cc2ccccc21,measured: body temperature increased,human male,"oral, dose not given, CTCAE on-treatment AEs",,adverse events incidence,7%
CCC(C)n1ncn(-c2ccc(N3CCN(c4ccc(OCC5COC(Cn6cncn6)(c6ccc(Cl)cc6Cl)O5)cc4)CC3)cc2)c1=O (stereo not drawn),measured: general administration site conditions,healthy human participants,"oral, 200 mg, compound alone cohort",,adverse event incidence,0%
C[C@@H]1CCO[C@H]2Cn3cc(C(=O)NCc4ccc(F)cc4F)c(=O)c(O)c3C(=O)N12,"population PK, post-hoc","children, 25 to <30 kg, plasma","oral, 35 mg film-coated tablet, steady state, geometric mean",,AUC(0-24),51000 ng·h/mL
CCCCc1ccc(-c2ccc(C#N)cc2)cc1,measured: compound,"human pregnant women, male fetuses, maternal serum","dose not given, paired maternal-cord samples, mean",,concentration,0.19 ng/mL
COc1cccc(OC)c1-c1cc(C(=O)NC2(C(=O)O)C3CC4CC(C3)CC2C4)nn1-c1ccc(C(=O)N(C)CCCN(C)CCCN(C)C(=O)CN2CCN(CC(=O)[O-])CCN(CC(=O)[O-])CCN(CC(=O)[O-])CC2)cc1C(C)C.[177Lu+3] (stereo not drawn),,"mouse, HT-29 xenograft","24 h post injection, biodistribution",baseline: tumour over brain uptake,tumour-to-brain ratio,254
CCc1nc(C(N)=O)c(Nc2ccc(N3CCC(N4CCN(C)CC4)CC3)c(OC)c2)nc1NC1CCOCC1,,spiked mouse plasma QC samples,room temperature,,bench-top stability time,≥ 6 h
CC[C@H](C)[C@H](NC(=O)[C@H](Cc1ccccc1)NC(=O)[C@H](CCC(=O)O)NC(=O)[C@H](CCCCNC(=O)COCCOCCNC(=O)COCCOCCNC(=O)CC[C@H](NC(=O)CCCCCCCCCCCCCCCCC(=O)O)C(=O)O)NC(=O)[C@H](C)NC(=O)[C@H](C)NC(=O)[C@H](CCC(N)=O)NC(=O)CNC(=O)[C@H](CCC(=O)O)NC(=O)[C@H](CC(C)C)NC(=O)[C@H](Cc1ccc(O)cc1)NC(=O)[C@H](CO)NC(=O)[C@H](CO)NC(=O)[C@@H](NC(=O)[C@H](CC(=O)O)NC(=O)[C@H](CO)NC(=O)[C@@H](NC(=O)[C@H](Cc1ccccc1)NC(=O)[C@@H](NC(=O)CNC(=O)[C@H](CCC(=O)O)NC(=O)C(C)(C)NC(=O)[C@@H](N)Cc1cnc[nH]1)[C@@H](C)O)[C@@H](C)O)C(C)C)C(=O)N[C@@H](C)C(=O)N[C@@H](Cc1c[nH]c2ccccc12)C(=O)N[C@@H](CC(C)C)C(=O)N[C@H](C(=O)N[C@@H](CCCNC(=N)N)C(=O)NCC(=O)N[C@@H](CCCNC(=N)N)C(=O)NCC(=O)O)C(C)C,,type 2 diabetes patients,"dose not given, hypoglycaemic clamp, nadir to recovery",baseline: placebo,diastolic blood pressure difference,1.9 mm Hg
Cc1ccc(C(=O)N(CCCN)C(c2nc3snc(C)c3c(=O)n2Cc2ccccc2)C(C)C)cc1 (stereo not drawn),stomatitis grade ≥3 (CTCAE),human patients,"intravenous, 2 mg/day",,patients with adverse event,0%
C=CC(NS(=O)(=O)c1cccc(Cl)c1O)C1CCC1 (stereo not drawn),"colloidal aggregate formation, dynamic light scattering",50 mM potassium phosphate buffer,"200 µM, pH 7.0, 1% DMSO",higher = more aggregation,DLS scattered light intensity,2.89e+08 counts/s
CCO[C@H]1CCN(Cc2c(OC)cc(C)c3[nH]ccc23)[C@H](c2ccc(C(=O)O)cc2)C1,,"PNH patients, active haemolysis","oral, 25 mg, 4 weeks, treatment",,incidence of nasopharyngitis,0%
Cc1nc(-c2ccc(OCC(C)C)c(C#N)c2)sc1C(=O)O,,"human, plasma","oral, 40 mg, added: verinurad 5 mg",baseline: test over reference,geometric mean ratio Cmax,76.1
O=C1c2ccncc2C(=O)c2c1[nH]c1ccccc21,,"Sprague-Dawley rat male, plasma","intravenous, 5 mg/kg",,terminal half-life,9.9 ± 5.3 h
CCc1cc(C(=O)NC)c2nccc(N3CCc4c(cc(Cn5ccnc5)cc4-c4cn(C)nc4C(F)(F)F)C3=O)c2c1,,Sprague Dawley rat,"oral, 100 mg/kg twice daily, 7 days",,kidney weight,2.4 ± 0.202 g
O=S(=O)(NC1CCCC12OCCO2)c1cccc(Cl)c1O (stereo not drawn),"colloidal aggregate formation, dynamic light scattering",50 mM potassium phosphate buffer,"200 µM, pH 7.0, 1% DMSO",higher = more aggregation,DLS scattered light intensity,2.63e+06 counts/s
Cc1ccc(Sc2ccccc2N2CCNCC2)c(C)c1,measured: hot flush,healthy adult men,"oral, 5 mg daily, 12 days",,participants with TEAE,0%
O=C1CC[C@H](N2Cc3cc(N4CCN(CC5CCN(c6ccc([C@@H]7c8ccc(O)cc8CC[C@@H]7c7ccccc7)cc6)CC5)CC4)ccc3C2=O)C(=O)N1,,EpiIntestinal microtissues incubation buffer,"40 µM, 0 h",,buffer concentration,38.5 µM
CC(=O)N(C)C1CCN(c2cc(F)cc(NC(=O)c3cc4c(F)ccc(C)c4[nH]3)c2)C1 (stereo not drawn),,CD1 mouse,"oral, 50 mg/kg",,terminal half-life,1.3 h
CCOC(=O)c1ccc2nc(NC(=O)c3cccs3)sc2c1,haemolysis,sheep erythrocytes,"1 h, pH 7.5",,HC50,> 128 µg/mL
O=S(=O)(Nc1ccc(OC2CCOC2)nc1)c1cccc(Cl)c1O (stereo not drawn),"colloidal aggregate formation, dynamic light scattering",50 mM potassium phosphate buffer,"200 µM, pH 7.0, 1% DMSO",higher = more aggregation,DLS scattered light intensity,896000 counts/s
N#Cc1ccc2c(c1)[C@H]1CCCN(C(=O)c3ccc4[nH]cnc4c3)[C@H]1C2,,human females,"40 mg, end of trial",,SHBG level,35.9 nmol/L
